Measured values gathered from unrelated publications.
Each line is one published result; not all experiments were run side by side.
PFF0160c: Dihydroorotate dehydrogenase (quinone), mitochondrial (PFF0160c, Plasmodium falciparum, UniProt Q08210)
Chain of UniProt Q08210 (whole entry, looked up): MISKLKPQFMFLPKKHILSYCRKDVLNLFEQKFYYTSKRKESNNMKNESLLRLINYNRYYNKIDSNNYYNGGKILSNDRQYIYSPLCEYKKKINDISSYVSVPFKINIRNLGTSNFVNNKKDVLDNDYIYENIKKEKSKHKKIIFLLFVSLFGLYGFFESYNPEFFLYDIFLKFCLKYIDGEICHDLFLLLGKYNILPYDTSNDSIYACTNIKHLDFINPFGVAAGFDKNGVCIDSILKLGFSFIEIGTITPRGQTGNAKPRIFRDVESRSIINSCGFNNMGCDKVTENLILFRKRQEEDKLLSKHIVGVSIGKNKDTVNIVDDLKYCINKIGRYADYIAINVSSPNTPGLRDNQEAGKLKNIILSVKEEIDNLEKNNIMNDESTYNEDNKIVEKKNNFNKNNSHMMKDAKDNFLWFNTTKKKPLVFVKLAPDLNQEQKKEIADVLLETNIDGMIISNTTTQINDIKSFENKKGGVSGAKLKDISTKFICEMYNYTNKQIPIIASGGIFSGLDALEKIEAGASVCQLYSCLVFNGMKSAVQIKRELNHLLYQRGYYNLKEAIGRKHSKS
Chain of UniProt Q15303 (whole entry, looked up): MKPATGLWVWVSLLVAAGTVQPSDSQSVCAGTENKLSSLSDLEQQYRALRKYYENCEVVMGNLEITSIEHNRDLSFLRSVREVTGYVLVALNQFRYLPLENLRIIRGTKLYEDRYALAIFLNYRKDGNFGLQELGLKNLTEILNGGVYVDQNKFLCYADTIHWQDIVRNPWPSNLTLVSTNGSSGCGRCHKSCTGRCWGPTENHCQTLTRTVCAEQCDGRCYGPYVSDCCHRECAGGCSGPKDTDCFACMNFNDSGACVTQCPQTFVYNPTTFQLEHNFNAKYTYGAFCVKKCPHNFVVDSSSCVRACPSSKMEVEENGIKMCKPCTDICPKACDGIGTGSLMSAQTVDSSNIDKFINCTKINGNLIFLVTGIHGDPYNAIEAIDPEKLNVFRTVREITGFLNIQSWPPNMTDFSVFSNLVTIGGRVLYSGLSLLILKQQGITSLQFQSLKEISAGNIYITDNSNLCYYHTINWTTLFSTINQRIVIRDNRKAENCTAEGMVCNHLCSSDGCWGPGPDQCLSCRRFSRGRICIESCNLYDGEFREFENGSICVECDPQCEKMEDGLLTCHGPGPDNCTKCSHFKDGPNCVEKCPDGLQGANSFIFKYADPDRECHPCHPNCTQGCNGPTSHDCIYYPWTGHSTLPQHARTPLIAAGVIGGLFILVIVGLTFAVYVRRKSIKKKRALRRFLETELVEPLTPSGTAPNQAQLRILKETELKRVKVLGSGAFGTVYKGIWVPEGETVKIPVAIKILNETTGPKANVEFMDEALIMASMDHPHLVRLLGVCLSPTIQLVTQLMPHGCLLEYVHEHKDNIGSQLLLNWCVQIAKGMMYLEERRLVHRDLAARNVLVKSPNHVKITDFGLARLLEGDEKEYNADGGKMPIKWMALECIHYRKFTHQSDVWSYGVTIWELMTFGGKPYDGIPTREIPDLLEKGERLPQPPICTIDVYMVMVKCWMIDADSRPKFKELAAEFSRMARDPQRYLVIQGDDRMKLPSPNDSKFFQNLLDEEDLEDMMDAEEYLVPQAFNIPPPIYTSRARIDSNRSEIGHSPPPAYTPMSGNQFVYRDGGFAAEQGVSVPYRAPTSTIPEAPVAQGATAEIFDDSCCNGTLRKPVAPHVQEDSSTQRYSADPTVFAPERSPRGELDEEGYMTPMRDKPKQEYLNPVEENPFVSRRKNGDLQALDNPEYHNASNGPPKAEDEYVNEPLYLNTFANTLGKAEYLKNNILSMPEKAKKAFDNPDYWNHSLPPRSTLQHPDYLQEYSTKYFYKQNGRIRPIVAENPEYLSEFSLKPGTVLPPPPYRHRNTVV
Chain of UniProt Q12809 (whole entry, looked up): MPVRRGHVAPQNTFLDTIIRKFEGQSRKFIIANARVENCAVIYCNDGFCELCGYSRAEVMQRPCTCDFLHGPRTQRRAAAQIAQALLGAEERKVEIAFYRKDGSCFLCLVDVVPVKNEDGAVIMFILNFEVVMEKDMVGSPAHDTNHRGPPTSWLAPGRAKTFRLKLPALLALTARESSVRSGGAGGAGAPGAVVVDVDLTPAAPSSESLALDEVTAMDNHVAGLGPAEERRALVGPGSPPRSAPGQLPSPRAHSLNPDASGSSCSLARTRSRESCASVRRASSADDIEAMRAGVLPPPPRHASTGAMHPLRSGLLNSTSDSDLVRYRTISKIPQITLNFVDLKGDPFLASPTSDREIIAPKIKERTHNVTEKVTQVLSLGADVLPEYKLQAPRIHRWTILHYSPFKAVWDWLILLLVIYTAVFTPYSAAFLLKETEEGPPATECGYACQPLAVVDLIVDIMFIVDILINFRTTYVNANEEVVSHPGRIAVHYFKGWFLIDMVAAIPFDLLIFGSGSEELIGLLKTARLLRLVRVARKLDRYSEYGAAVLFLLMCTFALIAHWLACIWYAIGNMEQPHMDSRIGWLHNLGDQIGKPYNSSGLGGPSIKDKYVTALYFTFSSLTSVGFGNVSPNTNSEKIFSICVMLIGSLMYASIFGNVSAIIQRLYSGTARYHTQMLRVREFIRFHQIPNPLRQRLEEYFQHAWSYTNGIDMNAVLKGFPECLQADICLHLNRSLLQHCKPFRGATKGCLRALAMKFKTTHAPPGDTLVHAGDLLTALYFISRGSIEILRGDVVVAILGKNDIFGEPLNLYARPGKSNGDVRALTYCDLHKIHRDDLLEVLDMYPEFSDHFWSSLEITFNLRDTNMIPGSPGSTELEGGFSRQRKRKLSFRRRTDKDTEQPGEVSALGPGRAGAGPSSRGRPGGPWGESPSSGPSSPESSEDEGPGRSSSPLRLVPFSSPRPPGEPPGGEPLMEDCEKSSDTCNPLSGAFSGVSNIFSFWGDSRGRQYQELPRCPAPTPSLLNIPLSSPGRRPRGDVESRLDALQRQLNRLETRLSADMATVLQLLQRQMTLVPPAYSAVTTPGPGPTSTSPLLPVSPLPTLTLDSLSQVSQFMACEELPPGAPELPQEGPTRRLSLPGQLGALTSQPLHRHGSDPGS

SMILES | tested on | test | system | setting | endpoint | value
Nc1c2c(nc3c1C(c1cccc([N+](=O)[O-])c1)c1ccc(OS(=O)(=O)c4ccc(F)cc4)cc1O3)CCCC2 (stereo not drawn) | SH-SY5Y | cell growth or viability, MTT | – | 100 µM | viability | 39.6%
C/C=C1/CN2CC[C@@]34c5ccccc5N(C)[C@]35OC[C@@]4(C(=O)OC)[C@H]1C[C@H]25 | – | – | Caco-2 | pH 7.4 | Papp B→A | 24.5 ×10⁻⁶ cm/s
Nc1c2c(nc3c1C(c1cccc([N+](=O)[O-])c1)c1ccc(OCC(=O)c4ccc(Cl)cc4)cc1O3)CCCC2 (stereo not drawn) | SH-SY5Y | cell growth or viability, MTT | – | 1.6 µM | viability | 80.2%
C[N+]1=C2C=C(N)C(=O)c3[nH]cc(c32)CC1 | HeLa | cell growth or viability, MTT | – | 72 h | CC50 | 1000 nM
COc1ccc2c(c1)[C@]13CCCC[C@@H]1[C@H](C2)N(C)CC3 | – | – | human, hepatocytes | 4 h, pH 7.4 | fraction unbound | 1
COc1ccc(C[C@H](NC(=O)[C@H](C)NC(=O)CN2CCOCC2)C(=O)N[C@@H](Cc2ccccc2)C(=O)C2(C)CO2)cc1 (stereo in doubt) | HEK-293T | cell growth or viability, CCK-8 | – | 48 h | CC50 | > 100000 nM
Nc1c2c(nc3c1C(c1ccc(Cl)c(Cl)c1)c1ccc(OCC(=O)c4ccccc4)cc1O3)CCCC2 (stereo not drawn) | SH-SY5Y | cell growth or viability, MTT | – | 6.3 µM | viability | 58.5%
CC[C@H](C)CCCCC(=O)N[C@@H](CCN)C(=O)N[C@H](C(=O)N[C@@H](CCN)C(=O)N[C@H]1CCNC(=O)[C@H]([C@@H](C)O)NC(=O)[C@H](CCN)NC(=O)[C@H](CCN)NC(=O)[C@H](CC(C)C)NC(=O)[C@@H](CC(C)C)NC(=O)[C@H](CCN)NC1=O)[C@@H](C)O | – | – | male Sprague-Dawley rat, plasma | subcutaneous, 10 mg/kg | AUC(0-t) | 22500 ng·h/mL
[18FH] | – | – | mouse, muscle | intravenous, 1 h | tracer uptake | 0.32 %ID/g
O=C1CC[C@H](N2Cc3c(ccc4c3OCC43CCN(C[C@@H]4CCC5(CCN(c6ccc([C@@H]7c8ccc(O)cc8CC[C@@H]7c7ccccc7)cc6)CC5)OC4)CC3)C2=O)C(=O)N1 | – | – | mouse, plasma | intravenous, 1 mg/kg | clearance | 18.8 mL/min/kg
CC[C@H](C)[C@H](NC(=O)CN)C(=O)NCC(=O)N[C@@H](C)C(=O)N[C@H](C(=O)N[C@@H](CC(C)C)C(=O)N[C@@H](CCCCN)C(=O)N[C@H](C(=O)N[C@@H](CC(C)C)C(=O)N[C@H](C(=O)N[C@H](C(=O)NCC(=O)N[C@@H](CC(C)C)C(=O)N1CCC[C@H]1C(=O)N[C@@H](C)C(=O)N[C@@H](CC(C)C)C(=O)N[C@H](C(=O)N[C@@H](CO)C(=O)N[C@@H](Cc1c[nH]c2ccccc12)C(=O)N[C@H](C(=O)N[C@@H](CCCCN)C(=O)N[C@@H](CCCNC(=N)N)C(=O)N[C@@H](CCCCN)C(=O)N[C@@H](CCCNC(=N)N)C(=O)N[C@@H](CCC(N)=O)C(=O)N[C@@H](CCC(N)=O)C(N)=O)[C@@H](C)CC)[C@@H](C)CC)[C@@H](C)O)[C@@H](C)O)C(C)C)C(C)C | – | chemical stability, HPLC | human, serum | 300 µM, 8 h | compound remaining | ~52%
COc1ccc(S(=O)(=O)Oc2ccc3c(c2)Oc2nc4c(c(N)c2C3c2cccc(OC)c2)CCCC4)cc1 (stereo not drawn) | SH-SY5Y | cell growth or viability, MTT | – | 6.3 µM | viability | 72.9%
C[C@]12CC[C@H]3[C@@H](CC=C4CC(O)CC[C@@]43CO)[C@@H]1CCC2O (stereo partly drawn) | – | – | rat, plasma | intraperitoneal, 10 mg/kg | AUC | 1100 ng·h/mL
Cc1nc(Nc2ccc(C)c(Cl)c2)c2c(C)noc2n1 | PFF0160c | enzyme activity, inhibitor, absorbance | – | – | IC50 | 267 nM
Cn1c(=O)ccc2ccc(F)c(CCNC[C@H]3CN(c4ncc5c(n4)NC(=O)CO5)C(=O)O3)c21 | KCNH2 (Homo sapiens, UniProt Q12809) | ion current, inhibitor, patch clamp | – | 2 min, pH 7.4 | IC50 | 214000 nM
Cc1ccc(S(=O)(=O)Oc2ccc3c(c2)Oc2nc4c(c(N)c2C3c2ccc(Cl)c(Cl)c2)CCCC4)cc1 (stereo not drawn) | SH-SY5Y | cell growth or viability, MTT | – | 1.6 µM | viability | 80.5%
COc1ccc([C@@]23Oc4cc(OC)cc(OC)c4[C@@]24N=C(C2CC2)N[C@@]4(O)[C@H](C(=O)N(C)OC)[C@H]3c2ccccc2)cc1 | – | metabolic stability | male Sprague-Dawley rat, liver microsomes | 1 µM, pH 7.4 | microsomal CLint | 35.6 µL/min/mg
CC(C)C[C@H](NC(=O)[C@H](Cc1ccccc1)NC(=O)[C@H](Cc1ccccc1)NC(=O)Cc1ccc(-c2ccccc2)cc1)C(=O)N[C@@H](CCCCN)C(=O)N[C@@H](CCCNC(=N)N)C(=O)N[C@H](C(=O)N[C@@H](Cc1c[nH]c2ccccc12)C(=O)N[C@@H](CCCCN)C(=O)N[C@@H](CCCNC(=N)N)C(=O)O)C(C)C | – | metabolic stability | dog, liver microsomes | 30 min | compound remaining | 65.1%
O=C([O-])CN1CCN(CC(=O)[O-])CCN(CC(=O)NCC2CCC(C(=O)N[C@@H](Cc3ccc4ccccc4c3)C(=O)NCCCC[C@H](NC(=O)N[C@@H](CCC(=O)O)C(=O)O)C(=O)O)CC2)CCN(CC(=O)[O-])CC1.[177Lu+3] (stereo partly drawn) | 22Rv1 tumour model | – | host not given, blood | 96 h, tumour-bearing | tracer uptake | 0.04 %ID/g
C[N+]1=C2C=C(N/C=C/c3ccc(O)cc3)C(=O)c3[nH]cc(c32)CC1 | HeLa | cell growth or viability, MTT | – | 72 h | CC50 | 4700 nM
N=C(N)NCCC[C@@H](NC(=O)[C@@H](N)Cc1ccccc1)C(=O)N[C@@H](Cc1ccccc1)C(=O)N[C@@H](CCCCN)C(N)=O | – | – | human, plasma | subcutaneous, 25 mg, multiple doses, once daily, patients | Cmax | 1140 ng/mL
[2H]c1c([2H])c([C@]2([2H])CCCN2C(=O)C(C)(C)Oc2ccc3cn[nH]c3c2)c([2H])c([2H])c1C([2H])([2H])[2H] | ERBB4 (Homo sapiens, UniProt Q15303) | binding, competition with immobilised ligand | – | 1 µM | remaining binding | 82%
Nc1c2c(nc3c1C(c1ccc(Cl)c(Cl)c1)c1ccc(OCC(=O)c4ccc(Cl)cc4)cc1O3)CCCC2 (stereo not drawn) | SH-SY5Y | cell growth or viability, MTT | – | 25 µM | viability | 59.4%
Cc1nnc(N2C(=N)SC(=Cc3ccc(-c4ccc(OC(F)(F)F)cc4)o3)C2=O)s1 | PFF0160c | enzyme activity, inhibitor, absorbance | – | – | IC50 | > 10000 nM
CCOC(=O)c1c(NC(=O)CNC(C)C)sc2c1CCCCC2 | – | – | male mouse, brain | intraperitoneal, 100 mg/kg, 24 h | concentration | 3.32 ng/g
COCC1=N[C@@]2(O)[C@H](C(=O)N(C)OC)[C@@H](c3ccccc3)[C@]3(c4ccc(OC)cc4)Oc4cc(OC)cc(OC)c4[C@]23N1 | – | metabolic stability | male CD-1 mouse, liver microsomes | 1 µM, pH 7.4 | microsomal CLint | 308 µL/min/mg
Cn1cc2c3c1C(=O)C(N)=CC3=[N+](C)CC2 | HeLa | cell growth or viability, MTT | – | 72 h | CC50 | 780 nM

For quick reference, copied from above:
SMILES | tested on | test | system | setting | endpoint | value
COc1ccc2c(c1)[C@]13CCCC[C@@H]1[C@H](C2)N(C)CC3 | – | – | human, hepatocytes | 4 h, pH 7.4 | fraction unbound | 1
COc1ccc(C[C@H](NC(=O)[C@H](C)NC(=O)CN2CCOCC2)C(=O)N[C@@H](Cc2ccccc2)C(=O)C2(C)CO2)cc1 (stereo in doubt) | HEK-293T | cell growth or viability, CCK-8 | – | 48 h | CC50 | > 100000 nM
Nc1c2c(nc3c1C(c1ccc(Cl)c(Cl)c1)c1ccc(OCC(=O)c4ccccc4)cc1O3)CCCC2 (stereo not drawn) | SH-SY5Y | cell growth or viability, MTT | – | 6.3 µM | viability | 58.5%
CC[C@H](C)CCCCC(=O)N[C@@H](CCN)C(=O)N[C@H](C(=O)N[C@@H](CCN)C(=O)N[C@H]1CCNC(=O)[C@H]([C@@H](C)O)NC(=O)[C@H](CCN)NC(=O)[C@H](CCN)NC(=O)[C@H](CC(C)C)NC(=O)[C@@H](CC(C)C)NC(=O)[C@H](CCN)NC1=O)[C@@H](C)O | – | – | male Sprague-Dawley rat, plasma | subcutaneous, 10 mg/kg | AUC(0-t) | 22500 ng·h/mL
